{"data": "Measurements from different studies", "note": "± marks the error that the study gave."}
{"SMILES": "CC1CC(=O)N(CCCCCCN)N=C1c1ccc(NC(=O)N2Cc3ccncc3C2)cc1 (centres unmarked)", "cell line": "A549-C4.4a", "assay": "cell viability, CellTiter-Glo", "IC50 [µM]": 0.066}
{"SMILES": "S=c1n(-c2ccccc2)c2c3ccccc3nc3[n+]2[n]1[Ir-3]12([S]3)([c]3ccccc3-c3sc4ccccc4[n+]31)[c]1ccccc1-c1sc3ccccc3[n+]12", "cell line": "MRC9", "assay": "cell viability, MTT", "setting": "dark", "IC50 [µM]": "> 50"}
{"SMILES": "C=C[C@H](OC(C)=O)c1ccc(OC(C)=O)cc1", "cell line": "EJ-28", "assay": "cell growth or viability, MTT", "setting": "24 h", "IC50 [µM]": 8.2}
{"SMILES": "C=CC(=O)N1CCC(c2c(-c3ccc(OC)cc3)c3c(N)ncnc3n2C)C1 (centres unmarked)", "cell line": "SNU-16", "assay": "cell growth or viability, ATP luminescence", "setting": "96 h", "IC50 [µM]": 0.15}
{"SMILES": "CC1=C2[O][Ru-]([Cl])[O+]=C2C=CN1CCCCCCCCCCCCN1C=CC2=[O+][Ru-]([Cl])[O]C2=C1C.Cc1ccc(C(C)C)cc1.Cc1ccc(C(C)C)cc1", "cell line": "DAN-G", "assay": "cell growth or viability, crystal violet", "setting": "96 h", "IC50 [µM]": 4.4}
{"SMILES": "Cc1cc(C)c(-n2c3c([n+](-c4c(C)cc(C)cc4C)[c]2[Au-][Cl])-c2cccc4cccc-3c24)c(C)c1", "cell line": "C13 cisplatin-resistant", "assay": "cell viability, MTT", "setting": "72 h", "IC50 [µM]": "8 ± 1"}
{"SMILES": "Cc1cc(C=O)cc(C)c1Oc1cc(Nc2ccc(C#N)cc2)nc2ccncc12", "cell line": "MOLT-3", "setting": "48 h", "IC50 [µM]": "17.6 ± 7.8"}
{"SMILES": "CCCCCCCCCCCCN(CCCCCCCCCCCC)C1=[S+][Au-2]2([S]1)[c]1ccccc1-c1cccc[n+]12.F[P-](F)(F)(F)(F)F (centres unmarked)", "cell line": "BT-333 glioblastoma", "assay": "MTT", "setting": "72 h", "IC50 [µM]": 17.8}
{"SMILES": "CCCCCCCCC=CCCCCCCCC(=O)OCC1OC(n2ccc(N)nc2=O)C(F)(F)C1O (centres unmarked)", "cell line": "THX", "assay": "cell growth", "IC50 [µM]": "0.004 ± 0.0016"}
{"SMILES": "Cc1c(C)n(-c2c(C(C)C)cccc2C(C)C)c(=[Se])n1-c1c(C(C)C)cccc1C(C)C.[Cl][Ag]", "cell line": "LoVo MDR", "assay": "MTT", "setting": "72 h", "IC50 [µM]": "1.3 ± 0.2"}
{"SMILES": "O=[N+]([O-])c1ccc(NC2=N[N+](=Cc3cccs3)[Pd-]([Cl])([Cl])[S]2)cc1", "cell line": "CEM human lymphocytes", "assay": "cell proliferation", "IC50 [µM]": 152}
{"SMILES": "CC(=O)c1cnc(N)nc1N1CC[C@H]1c1nn2ccc(Cl)c2c(=O)n1-c1ccccc1", "cell line": "human CD4 T cells", "assay": "cell proliferation", "setting": "with: anti-CD3/anti-CD28", "IC50 [µM]": 0.12}
{"SMILES": "[Cl][Au-]1([Cl])[N+](=P(c2ccccc2)(c2ccccc2)C2C=CC=C2)Cc2cccc[n+]21.[Cl][Au-]1([Cl])[N+](=P(c2ccccc2)(c2ccccc2)C2C=CC=C2)Cc2cccc[n+]21.[Fe+2].[O-][Cl+3]([O-])([O-])[O-].[O-][Cl+3]([O-])([O-])[O-]", "cell line": "A2780cisR (cisplatin-resistant)", "assay": "cell growth, MTT", "setting": "74 h, 1% DMSO", "IC50 [µM]": "2.4 ± 0.5"}
{"SMILES": "CN1CCCNC(=O)c2cccc(c2)C(=O)NCCCN(C)CCCNc2cccc3c2C(=O)c2cccc(c2C3=O)NCCC1", "cell line": "cancer cell lines", "assay": "cell proliferation", "setting": "general range", "IC50 [µM]": "< 1"}
{"SMILES": "COc1ccc(/C=C/C2=[N+]3C(=C(CO)c4c(C)cc(/C=C/c5ccc(OC)cc5)n4[B-]3(F)F)C(C)=C2C=O)cc1", "cell line": "RPE-1", "assay": "phototoxicity, resazurin", "setting": "with: 645 nm light, 9.00 J/cm2", "IC50 [µM]": "3.8 ± 0.5"}
{"SMILES": "Cc1c(C)c(C)[c-](C)c1C.O=[N+]([O-])c1ccnc(-c2[c-]cccc2)c1.[Cl-].[Ir+3]", "cell line": "A2780 cells", "assay": "cell growth, SRB", "setting": "24 h exposure, 72 h recovery", "IC50 [µM]": "2.7 ± 0.1"}
{"SMILES": "CC(C)=CCC1=C([O-])C(=O)c2ccccc2C1=O.CC(C)=CCC1=C([O-])C(=O)c2ccccc2C1=O.[Cu+2].c1ccc(-c2ccccn2)nc1", "cell line": "MRC5 normal fibroblasts", "assay": "cell viability, MTT", "setting": "24 h", "IC50 [µM]": "36 ± 2.8"}
{"SMILES": "NS(=O)(=O)c1ccc(NC(=O)NN[C@@H]2OC[C@@H](O)[C@H](O)[C@H]2O)cc1", "cell line": "HCEC", "assay": "cell growth or viability, MTT", "setting": "96 h", "IC50 [µM]": "> 100"}
{"SMILES": "CCCCOc1nc(N)c2[nH]c(=O)n(CCCN(CCCN3CCOCC3)Cc3cccc(CC(=O)OC)c3)c2n1", "cell line": "human PBMC", "assay": "IL-5 release", "setting": "7 d, with: Der p 1", "IC50 [µM]": 0.0002}
{"SMILES": "O=C(/C=C/c1ccc2c(c1)C(=O)N(CCCc1ccccc1)CC2)NO", "cell line": "MKN-28", "assay": "cell growth, SRB", "setting": "72 h", "IC50 [µM]": "1.4 ± 0.55"}
{"note": "A few entries again:"}
{"SMILES": "Cc1cc(C=O)cc(C)c1Oc1cc(Nc2ccc(C#N)cc2)nc2ccncc12", "cell line": "MOLT-3", "setting": "48 h", "IC50 [µM]": "17.6 ± 7.8"}
